# Experimental data pooled from the literature.
# A part holds a random share of what one study measured.

# Series 1
# Target: Interferon regulatory factor 7, full length, phosphomimetic (IRF7, Homo sapiens, UniProt Q92985, residues 1-503, S101K/S471D/S472D/S475D/S476D/S477D/S483D/S484D/S487D)
# Technique: protein-binding microarray
# Form: double-stranded DNA, one strand shown
# Sample: in vitro
# Tested at: 250 nM
# Setting: 60-bp whole probe
# Together with: salmon DNA 0.4 mg/ml
# Relative to: random background probes
# Direction: higher = stronger binding
# All sequences stand within: GCCTAGCAC … GTCTTGATTCGCTTGACGCTGCTG
# Construct (chain): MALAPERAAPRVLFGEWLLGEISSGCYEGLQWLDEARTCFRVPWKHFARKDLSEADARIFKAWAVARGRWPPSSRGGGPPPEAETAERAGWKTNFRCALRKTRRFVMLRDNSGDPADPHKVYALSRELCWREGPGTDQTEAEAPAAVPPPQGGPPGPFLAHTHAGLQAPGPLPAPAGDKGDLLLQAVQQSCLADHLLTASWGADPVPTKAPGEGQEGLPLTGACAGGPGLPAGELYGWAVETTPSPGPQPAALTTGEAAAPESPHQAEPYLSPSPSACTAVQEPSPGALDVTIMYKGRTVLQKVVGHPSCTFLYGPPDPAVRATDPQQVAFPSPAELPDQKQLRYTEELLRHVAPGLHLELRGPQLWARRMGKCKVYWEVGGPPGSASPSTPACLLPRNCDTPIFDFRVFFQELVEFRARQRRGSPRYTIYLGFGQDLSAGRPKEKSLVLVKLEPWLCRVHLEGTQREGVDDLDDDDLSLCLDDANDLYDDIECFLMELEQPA
Oligonucleotide,log fluorescence [z-score]
GACGGTATCCTACTCCTGACGTGCTAG,-0.0855
GACGGTATCGGTCTCGAGACGTGCTAG,0.849
TGTACTCTCTCCATGTGTTTGTGCTAG,0.706
TGTGTTTTAAATAGGGCAAAGTGCTAG,1.03
GACGATCTCAGTATCGAGCCGTGCTAG,-0.0561
TTAGGTATCGGGAATCGGTTAGTGCTA,0.42
GACGAACTGAGTACCGAGACGTGCTAG,-0.127
CCCTGTTTCCATCTCTCAAAGTGCTAG,3.5

# Series 2
# Target: Sal-like protein 4, full length isoform A (SALL4, Homo sapiens, UniProt Q9UJQ4, residues 1-1053)
# UniProt Q9UJQ4, sequence (whole entry, looked up): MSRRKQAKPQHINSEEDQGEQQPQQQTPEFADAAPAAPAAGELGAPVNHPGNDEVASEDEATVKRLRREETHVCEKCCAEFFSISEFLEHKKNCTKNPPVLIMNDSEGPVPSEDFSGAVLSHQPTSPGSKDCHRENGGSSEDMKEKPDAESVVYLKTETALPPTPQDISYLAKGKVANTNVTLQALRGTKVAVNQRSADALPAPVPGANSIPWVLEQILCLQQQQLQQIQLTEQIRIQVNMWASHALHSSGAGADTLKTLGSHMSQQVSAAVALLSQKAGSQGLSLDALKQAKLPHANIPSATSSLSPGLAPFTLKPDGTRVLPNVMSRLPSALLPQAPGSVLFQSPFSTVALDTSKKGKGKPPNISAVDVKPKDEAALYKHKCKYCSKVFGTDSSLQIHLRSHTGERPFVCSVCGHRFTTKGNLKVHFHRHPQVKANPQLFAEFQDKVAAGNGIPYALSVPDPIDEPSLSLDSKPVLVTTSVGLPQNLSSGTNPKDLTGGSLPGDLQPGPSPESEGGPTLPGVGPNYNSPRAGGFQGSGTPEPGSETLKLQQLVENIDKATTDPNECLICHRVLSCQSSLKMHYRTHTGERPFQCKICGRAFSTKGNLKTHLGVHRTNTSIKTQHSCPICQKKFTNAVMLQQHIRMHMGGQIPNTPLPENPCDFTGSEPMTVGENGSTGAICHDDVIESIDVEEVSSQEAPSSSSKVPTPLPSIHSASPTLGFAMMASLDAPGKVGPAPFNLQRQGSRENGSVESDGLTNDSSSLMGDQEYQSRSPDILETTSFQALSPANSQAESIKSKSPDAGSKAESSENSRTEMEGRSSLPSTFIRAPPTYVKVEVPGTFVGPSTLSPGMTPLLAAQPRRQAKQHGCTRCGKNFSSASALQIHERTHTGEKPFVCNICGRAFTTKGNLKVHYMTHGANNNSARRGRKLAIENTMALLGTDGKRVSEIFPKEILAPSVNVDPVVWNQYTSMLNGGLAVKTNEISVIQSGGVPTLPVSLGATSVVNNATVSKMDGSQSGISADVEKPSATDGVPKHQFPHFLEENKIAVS
# Technique: universal PBM
# Form: double-stranded DNA, one strand shown
# Sample: in vitro
# Tested at: 600 nM
# Setting: 8-mer, flanks averaged, mean of replicates
# Direction: higher = stronger binding
Oligonucleotide,E-score
ATAGAGTG,0.0341
CTAGTCCC,-0.181
AATCCGGA,-0.0605
AGAATTCT,0.148
AATTTTGG,0.268
AACTTACT,0.00955
CCAAGGGC,-0.204
ACGTCTAT,0.029
CGTTTTCA,-0.0299
ACTACGCA,-0.11
TAGGAGGA,-0.0238
AAGGACTT,-0.114

# Series 3
# Target: Prothrombin, mature alpha-thrombin (F2, Homo sapiens, UniProt P00734)
# Technique: aptamer microarray, sandwich
# Form: DNA with 2'F-ANA
# Sample: in vitro
# Tested at: 200 nM
# Setting: whole 15-mer aptamer, many near background
# Together with: Cy3 exosite-II aptamer, 400 nM
# Direction: higher = stronger binding
# Oligonucleotide: GGTTGGTGTGGTTGG
Modification,mean fluorescence intensity [a.u.]
2'F-ANA at 1 3 7 8 9 11 15,307
2'F-ANA at 2 3 4 7 10 13,248
2'F-ANA at 2 5 6 7 8 10 13 14,54.8
2'F-ANA at 1 2 5 7 14,56.3
2'F-ANA at 1 2 3 7 8 9 10 12 13 15,94.6
2'F-ANA at 2 3 4 7 10 13 14 15,176
2'F-ANA at 2 4 9 10 12 13 14,159
2'F-ANA at 1 2 3 4 5 6 12 13 14 15,49.9
2'F-ANA at 1 3 6 7 12 13 14 15,110
2'F-ANA at 3 7 9 10,690

# Other studies, line by line
Substance,target,test,test system,conditions,scale,measurement,result
"PhoQ, residues 284 288 289 292 302 303 SSCCRF","PhoP, residues 12 14 15 18 19 NHTVL (Escherichia coli, UniProt P23836)","Sort-seq, measured: YFP reporter",E. coli,"PhoQ-PhoP variant library, together with: 10 µM Mg2+","relative to: high Mg2+ state, higher = stronger signaling",fold induction,20.9

# Excerpt of the above (series 1):
Oligonucleotide,log fluorescence [z-score]
TTAGGTATCGGGAATCGGTTAGTGCTA,0.42
CCCTGTTTCCATCTCTCAAAGTGCTAG,3.5
GACGGTATCGGTCTCGAGACGTGCTAG,0.849
